Measured values of several laboratories.
Each line is one published result; not all experiments were run side by side. Values joined by “and” are separate records of one study, mostly repeats; a detail may differ. Numbers after ± are the reported error.

Cc1cccc(CNC(=O)c2cn(CCNC(=O)c3ccccc3Sc3c([N+](=O)[O-])ncn3C)c3cc4c(cc3c2=O)OC(F)(F)O4)n1 — Cmax (Sprague-Dawley rat, male, plasma; intramuscular, 30 mg/kg of parent compound): 75 ± 33.5 ng/mL
CCc1c2c(nc3ccc(OC(=O)N4CCC(N5CCCCC5)CC4)cc13)-c1cc3c(c(=O)n1C2)COC(=O)[C@]3(O)CC — Cmax (Sprague-Dawley rats, plasma; iv, 10 mg/kg): 3740 ± 420 nM
C=CC(=O)N1CCC(Oc2cc3c(Nc4ccc(Cl)c(Cl)c4F)ncnc3cc2OC)CC1 — Cmax (Sprague-Dawley rat, male, plasma; oral, 2 mg/kg, with: vehicle pretreatment): 648 ± 137 ng/mL
OCC1=C[C@@H](O)[C@@H]2C=CO[C@@H](O[C@@H]3O[C@H](CO)[C@@H](O)[C@H](O)[C@H]3O)[C@H]12 — Cmax (rat, plasma; oral, 500 mg/kg Eu + 217 mg/kg Pc extract, dosed as combined Eu and Pc extracts): 35.7 ± 17.1 ng/mL
Cc1cccc(CNC(=O)c2cn(CCNC(=O)c3ccccc3S)c3cc4c(cc3c2=O)OC(F)(F)O4)n1 — Cmax (Sprague-Dawley rat, male, plasma; intravenous, 5 mg/kg of parent compound): 485 ± 32.6 ng/mL
Cc1nc(-c2cnc(NC(C)C)n(C)c2=O)ccc1Oc1ccnc(-c2cnn(C)c2)c1 — Cmax (Sprague-Dawley rat, male, plasma; oral, 10 mg/kg, crossover study): 16100 ng/mL
CCCCOCCOc1ccc(-c2ccc3c(c2)/C=C(/C(=O)Nc2ccc([S@@+]([O-])Cc4cncn4CCC)cc2)CCCN3CC(C)C)cc1 — Cmax (moderate hepatic impairment patients, plasma; oral, 150 mg, day 1, single dose, geometric mean): 387 ng/mL
COCC(=O)N1CCC[C@H](C(=O)NCc2nc(-c3ccc(C#N)cc3)cs2)C1 — Cmax (Sprague-Dawley rat, male, plasma; oral, 3 mg/kg): 21000 nM
C=CC(=O)N1CCC[C@@H](n2nc(-c3ccc(Oc4ccccc4)cc3)c3c(N)ncnc32)C1 — Cmax (male Wistar rat, stomach; oral, 50 mg/kg): 97900 ± 1110 ng/g
CN1CCC[C@H](CN2c3ccccc3Sc3ccccc32)C1.Cl — Cmax (female Wistar rat, lymph node; oral, 16 mg/kg): 3870 ng/g
O=C(O)c1cc(O)c(O)c(O)c1 — Cmax (rat, plasma; oral, 1000 mg/kg extract, possible metabolite or extract component): 1700 ± 390 ng/mL
CN(C)C(=O)c1cc2cnc(Nc3ccc(N4CCNCC4)cn3)nc2n1C1CCCC1 — Cmax (striatal microdialysis; Sprague-Dawley rat male, brain extracellular fluid; intraperitoneal, 100 mg/kg): 450 nM
COc1cc([C@H]2OC[C@H]3[C@@H]2CO[C@@H]3c2ccc(O[C@@H]3O[C@H](CO)[C@@H](O)[C@H](O)[C@H]3O)c(OC)c2)ccc1O[C@@H]1O[C@H](CO)[C@@H](O)[C@H](O)[C@H]1O — Cmax (rat, plasma; oral, 500 mg/kg Eu extract): 66.3 ± 30.9 ng/mL
O=C1c2ccncc2C(=O)c2c1[nH]c1ccccc21 — Cmax (Sprague-Dawley rat, male, plasma; intravenous, 1 mg/kg): 618 ± 236 nM
CSc1ccccc1C(=O)NCCn1cc(C(=O)NCc2cccc(C)n2)c(=O)c2cc3c(cc21)OC(F)(F)O3 — Cmax (Sprague-Dawley rat, male, whole blood; intramuscular, 30 mg/kg of parent drug): 6.28 ± 2.58 ng/mL
CCCCCCCCc1ccc(CCC(N)(CO)CO)cc1 — Cmax (male Sprague-Dawley rat, plasma; oral, 1 mg/kg, single dose): 4.19 ng/mL
CCCc1c(-c2ccc(O)cc2)nn(-c2ccc(O)cc2)c1-c1ccc(O)cc1 — Cmax (item: aglycone; rat, Long-Evans, female, serum; subcutaneous, 2 mg/kg single dose): 350 ± 40 nM
O=C(Nc1ccc(OC(F)(F)Cl)cc1)c1cnc(N2CC[C@@H](O)C2)c(-c2ccn[nH]2)c1 — Cmax (Sprague-Dawley rat, male, plasma; oral, 8 mg/kg): 390 ± 108 ng/mL
Cn1c(C(F)(F)F)cc(=O)n(-c2cc(Oc3cccnc3OCC(=O)O)c(Cl)cc2F)c1=O — Cmax (Crl:CD(SD) rats, female, plasma; oral diet, 50 ppm in diet, day 1, 90-day toxicity study): 85.4 ng/mL
CCc1cc(C(=O)NC)c2nccc(N3CCc4c(cc(Cn5ccnc5)cc4-c4cn(C)nc4C(F)(F)F)C3=O)c2c1 — Cmax (Sprague Dawley rat, male, plasma; oral, 100 mg/kg twice daily, day 1): 11900 ng/mL
CCOCc1nc(O)c(-c2nnc(Cc3ccc(Cl)cn3)o2)c(O)c1-c1c(OC)cccc1OC — Cmax (rat, post surgery, plasma; oral, 0.2 mg/kg once daily, day 6 post surgery): 310 nM
CNC(=O)c1cccc(-c2ccc([C@@H](O)[C@H]3O[C@H](CO)[C@@H](O)[C@H](O)[C@@H]3O)c(C)c2)c1 — Cmax (male Sprague-Dawley rat, plasma; intravenous, 3 mg/kg, group mean): 3410 ng/mL
O=C(O)C1=CO[C@@H](O[C@@H]2O[C@H](CO)[C@@H](O)[C@H](O)[C@H]2O)[C@@H]2C(CO)=CC[C@H]12 — Cmax (rat, plasma; oral, 500 mg/kg Eu + 217 mg/kg Pc extract, dosed as combined Eu and Pc extracts): 431 ± 198 ng/mL
CCn1ccc2c([C@](O)(c3cnc(C(F)(F)F)c(Cl)c3)C3CC3)n(C)nc2c1=O — Cmax (Sprague-Dawley rat, male; oral, 3 mg/kg, suspension): 516 ± 126 nM
CC(C)c1nc(N(C)S(C)(=O)=O)nc(-c2ccc(F)cc2)c1/C=C/[C@@H](O)C[C@@H](O)CC(=O)O — Cmax (Wistar albino rat, both sexes, plasma; oral, 20 mg/kg): 599 ng/mL and 405 ng/mL and 921 ng/mL
CNC(=O)c1cccc(-c2ccc(O[C@H]3O[C@H](CO)[C@@H](O)[C@H](O)[C@@H]3O)c(C)c2)c1 — Cmax (male Sprague-Dawley rat, plasma; oral, 10 mg/kg, group mean): 5 ng/mL
N=C(N)NCCNC(=O)C1(Nc2ccccc2)CCN(Cc2ccccc2)CC1 — Cmax (Sprague-Dawley rats (both sexes), plasma; oral, 50 mg/kg): 369 ± 55.7 ng/mL
CCc1c(-c2ccccc2)c(-c2ccccc2)nn1-c1ccccc1-c1cccc(OCC(=O)O)c1 — Cmax (Sprague-Dawley rat; intravenous, dose not given): 7460 ng/mL and 7790 ng/mL and 5900 ng/mL
CC(C)(N)COCC(=O)N1CCC[C@H](C(=O)NCc2nc(-c3ccc(C(F)(F)F)cc3)cs2)C1 — Cmax (Sprague-Dawley rat, male, plasma; oral, 3 mg/kg): 24 nM
Nc1ccn([C@@H]2O[C@H](CO)[C@@H](O)C2(F)F)c(=O)n1 — Cmax (Sprague-Dawley rat, male, plasma; intravenous, 5 mg/kg): 14800 ± 1120 ng/mL
CCC[C@H](NC(=O)[C@@H]1CCCN1C(=O)[C@@H](NC(=O)[C@H](N)CC(N)=O)[C@@H](C)CC)C(=O)N[C@@H](CC(C)C)C(=O)N[C@@H](Cc1ccc(O)cc1)C(=O)N[C@H](CO)C(=O)N[C@@H](Cc1ccccc1)C(=O)N[C@@H](C)C(=O)N[C@H](CO)C(N)=O — Cmax (male Sprague-Dawley rat, plasma; subcutaneous, 10 mg/kg single): 711 ng/mL
CN(C(=O)n1cnc(-c2ccc[n+]([O-])c2)c1)C1CCCCC1 — Cmax (Wistar Han rat, plasma; oral, 10 mg/kg, 1 h): 4270 ± 352 ng/mL
O=C(O)CCSC[C@H]1O[C@@H]2O[C@H]3[C@H](O)[C@@H](O)[C@@H](O[C@H]4[C@H](O)[C@@H](O)[C@@H](O[C@H]5[C@H](O)[C@@H](O)[C@@H](O[C@H]6[C@H](O)[C@@H](O)[C@@H](O[C@H]7[C@H](O)[C@@H](O)[C@@H](O[C@H]8[C@H](O)[C@@H](O)[C@@H](O[C@H]9[C@H](O)[C@@H](O)[C@@H](O[C@H]1[C@H](O)[C@H]2O)O[C@@H]9CSCCC(=O)O)O[C@@H]8CSCCC(=O)O)O[C@@H]7CSCCC(=O)O)O[C@@H]6CSCCC(=O)O)O[C@@H]5CSCCC(=O)O)O[C@@H]4CSCCC(=O)O)O[C@@H]3CSCCC(=O)O — Cmax (Sprague Dawley rats, plasma; intranasal, 5 mg/kg, with: rocuronium bromide IV): 458 ng/mL

Some of these lines once more:
CCOCc1nc(O)c(-c2nnc(Cc3ccc(Cl)cn3)o2)c(O)c1-c1c(OC)cccc1OC — Cmax (rat, post surgery, plasma; oral, 0.2 mg/kg once daily, day 6 post surgery): 310 nM
O=C1c2ccncc2C(=O)c2c1[nH]c1ccccc21 — Cmax (Sprague-Dawley rat, male, plasma; intravenous, 1 mg/kg): 618 ± 236 nM
CCn1ccc2c([C@](O)(c3cnc(C(F)(F)F)c(Cl)c3)C3CC3)n(C)nc2c1=O — Cmax (Sprague-Dawley rat, male; oral, 3 mg/kg, suspension): 516 ± 126 nM
CC(C)c1nc(N(C)S(C)(=O)=O)nc(-c2ccc(F)cc2)c1/C=C/[C@@H](O)C[C@@H](O)CC(=O)O — Cmax (Wistar albino rat, both sexes, plasma; oral, 20 mg/kg): 599 ng/mL and 405 ng/mL and 921 ng/mL
Cc1nc(-c2cnc(NC(C)C)n(C)c2=O)ccc1Oc1ccnc(-c2cnn(C)c2)c1 — Cmax (Sprague-Dawley rat, male, plasma; oral, 10 mg/kg, crossover study): 16100 ng/mL
